Experimental data pooled from the literature.
Compare with care: the assays were run in different laboratories. ± marks the error that the study gave.

CN1CCN(S(=O)(=O)c2cc([N+](=O)[O-])ccc2N(CCOS(C)(=O)=O)CCOS(C)(=O)=O)CC1 — Tmax (naive female NSG mice, plasma; intraperitoneal, 10 mg/kg): 15 min
CN[C@H](CC(C)C)C(=O)N[C@H]1C(=O)N[C@@H](CC(N)=O)C(=O)N[C@H]2C(=O)N[C@H]3C(=O)N[C@H](C(=O)N[C@H](C(=O)O)c4cc(O)cc(O)c4-c4cc3ccc4O)[C@H](O)c3ccc(c(Cl)c3)Oc3cc2cc(c3O[C@@H]2O[C@H](CO)[C@@H](O)[C@H](O)[C@H]2O[C@H]2C[C@](C)(N)[C@H](O)[C@H](C)O2)Oc2ccc(cc2Cl)[C@H]1O — clearance, bootstrap median (population PK model; human neonates): 0.095 L/h
Cn1cc(CN2CCCC(COc3ccccc3C(=O)N3CCCCC3)C2)c2ccccc21 (stereo not shown) — cytotoxicity efficacy (Vero-E6; CellTiter-Glo ATP; concentration not given, 72 h, first round 5-point; relative to: DMSO 0%, hyamine -100%, more negative, more toxic): 0%
O=c1ccc2ncc(=O)n3c2n1C[C@H]3CN1CCC(NCc2cc3c(cn2)OCCC3)CC1 — renal clearance (healthy human volunteers; oral, dose not given, arithmetic mean, together with: rifampicin): 285 mL/min
Nc1nc2cc(-c3ccc4ncc(C(=O)N5CCOCC5)n4c3)ccc2o1 — discontinuation due to adverse events (human, advanced solid tumours; 100–300 mg once daily, drug-related): 4%
C[C@@H](NC(=O)N1C(=O)[C@H](Cc2ccnc(N)c2)[C@H]1C(=O)O)C1CCCCC1 — incidence of moderate AEs (healthy adult Chinese volunteers; continuous intravenous infusion, 1.5 mg/kg/h, 5-day infusion, CTCAE 5.0 grading): 12.5%
COc1ccc(-c2nc(CN3CCC(C(=O)NCCCN4CCN(c5ccccc5F)CC4)CC3)c(C)o2)cc1OC — cytotoxicity efficacy (Vero-E6; CellTiter-Glo ATP; concentration not given, 72 h, second round 5-point; relative to: DMSO 0%, hyamine -100%, more negative, more toxic): -24.3%
O=c1nc(NO)ccn1[C@@H]1O[C@H](CO)[C@@H](O)[C@H]1O — long-term stability (rat fetus dialysate; 25 ng/mL, more than 4 weeks, -20 °C, low concentration, together with: molnupiravir 5 ng/mL): 97.5 ± 3.81%
COc1cc2c(Oc3ccc4[nH]c(C)cc4c3F)ccnc2cc1OCC1(N)CC1 — grade 1 or 2 Cholesterol elevation (paediatric recurrent refractory sarcoma; 8 mg/kg): 26.7%
O=C(Nc1ccccc1)C1CCN(C(=O)Oc2cccnc2)CC1 — Psychiatric disorders adverse events (healthy women; oral, 100 mg, 9 days): 23.1%
C[C@]1(CO)Cc2ncn(-c3ccc(C#N)c(Cl)c3)c2C(=O)O1 — drug-related orthostatic hypotension incidence (Japanese subjects; 20 mg single dose): 33.3%
O=C(O)CCCOc1ccc(F)cc1-c1cc(-c2ccccc2C(F)(F)F)n(-c2ccccc2)n1 — organ weight (female Crl:CD(SD) rats, heart; intravenous, 25 µg/kg, 1 d): 0.79 ± 0.07 g
CC1(C)C(C=C(Cl)Cl)C1C(=O)OC(C#N)c1ccc(F)c(Oc2ccccc2)c1 (stereo not shown) — enzyme contribution to clearance (item: CYP3A5; human, age 5 years, recombinant human CYP3A5; 0.1 µM): 0.2%
CCS(=O)(=O)Nc1ccc(Oc2ccc(F)cc2F)c(-c2cn(C)c(=O)c3[nH]ccc23)c1 — treatment-emergent adverse events (any AE leading to discontinuation; human, relapsed/refractory AML; oral, dose not given): 32%
Brc1ccc(Oc2cc(Br)c(Br)cc2Br)c(Br)c1 — final permeate concentration (ultrafiltration; cow milk whey; 2000 nM nominal in whole milk): 7.57 nM
C=CC[N+]1([C@H]2C[C@H]3[C@@H]4CC[C@H]5C[C@H](O)[C@@H](N6CCOCC6)C[C@]5(C)[C@H]4CC[C@]3(C)[C@H]2OC(C)=O)CCCC1 — terminal half-life (Sprague Dawley rat, plasma; intravenous, dose not given, together with: sugammadex 5 mg/kg ODD): 24.5 min
CO[C@H]1C[C@@H]2CC[C@@H](C)[C@@](O)(O2)C(=O)C(=O)N2CCCC[C@H]2C(=O)O[C@H]([C@H](C)C[C@@H]2CC[C@@H](OC(=O)NCCOCCOCCOCCOCCOCCOCCOCCOCCC(=O)N3CCc4cc(Cn5nc(-c6ccc7oc(N)nc7c6)c6c(N)ncnc65)ccc4C3)[C@H](OC)C2)C[C@@H](O)[C@H](C)/C=C(\C)[C@@H](O)[C@@H](OC)C(=O)[C@H](C)C[C@H](C)/C=C/C=C/C=C/1C — TRAE incidence (phase 1 dose escalation, item: fatigue; advanced solid tumour patients; intravenous, 6 mg weekly, grade ≥3): 8.3%
CN1CC[C@@H](c2c(O)cc(O)c3c(=O)cc(-c4ccc(C(F)(F)F)cc4Cl)oc23)[C@@H]1CO — patients with adverse event (item: Nausea; AML; oral, 100 mg, intermittent dosing): 0%
O=c1cc(-c2ccc(O)c(O)c2)oc2cc(O)cc(O)c12 — faecal excreted amount (male Sprague-Dawley rat, lean; oral, 100 mg/kg of neohesperidin, 0 to 12 h): 50 ± 22.6 ng
CC(=O)c1c(C)c2cnc(Nc3ccc(C4CCN(CCS(C)(=O)=O)CC4)cn3)nc2n(C2CCCC2)c1=O — AUC(0-inf) (human patients, plasma; oral, 75 mg twice daily, day 21 multiple doses, together with: fulvestrant): 1280 ng·h/mL
CCCCN1CCC(COC(=O)c2ccc(N)c(O[11CH3])c2)CC1 — inhibition (radioligand hydrolysis, esterase inhibitor; rhesus monkey plasma; concentration not given): 96 ± 3%
COc1ncccc1-c1cnn2ccc(N3CCN(C(=O)OC(C)C)CC3)nc12 — free drug concentration (mouse, SNL model, plasma; oral, 60 mg/kg, 120 min): 280 nM
O=C(O)CCC(CP(=O)(O)O)C(=O)O (stereo not shown) — measured concentration (rat plasma; 4 µg/mL, freeze-thaw cycle 1 at -80 °C): 4.26 ± 0.11 µg/mL
Cc1cc(C)c(CNC(=O)c2cc(Cl)c3c(c2C)O[C@@](C)([C@H]2CC[C@H](N(C)C)CC2)O3)c(=O)[nH]1 — incidence of mental status changes (relapsed/refractory NHL patients; dose not given, trial, safety set, treatment-related TEAE grade 5): 0%
CC(C)C[C@H](NC(=O)[C@H](CCCCN)NC(=O)OCC1c2ccccc2-c2ccccc21)C(=O)N[C@H](C(=O)N[C@@H](Cc1ccccc1)C(=O)N[C@@H](Cc1ccccc1)C(=O)N[C@@H](CCCCN)C(=O)NCC(=O)N[C@@H](Cc1ccccc1)C(=O)N[C@@H](C)C(=O)N[C@@H](Cc1c[nH]c2ccccc12)C(=O)N[C@@H](CC(N)=O)C(=O)N[C@H](C(=O)N[C@H]1CSSC[C@@H](C(=O)N[C@@H](Cc2c[nH]cn2)C(=O)N[C@@H](CCCNC(=N)N)C(=O)N[C@@H](CCCNC(=N)N)C(=O)N[C@@H](C)C(=O)N[C@@H](CC(N)=O)C(N)=O)NC(=O)[C@H](C(C)C)NC(=O)[C@H](CCCNC(=N)N)NC(=O)[C@H](C(C)C)NC(=O)CNC(=O)[C@H](CC(N)=O)NC(=O)[C@H](CCCNC(=N)N)NC(=O)[C@H](Cc2ccc(O)cc2)NC(=O)[C@H](C(C)C)NC1=O)C(C)C)C(C)C — haemoglobin (ICR mouse, blood; intramammary, 10 mg/kg, day 5, 3 d dosing): 130 ± 6.59 g/L
COC(=O)C(C(C)C)N(Cc1ccc(-c2ccccc2-c2nn[nH]n2)cc1)N=O (stereo not shown) — precipitation concentration (cell culture medium): 100 to 1000 µM
CC[C@H](C)[C@@H]1NC(=O)[C@@H]2CSSC[C@H](NC(=O)[C@H](CCCNC(=N)N)NC(=O)[C@@H]3CSSC[C@H](NC1=O)C(=O)N[C@@H]([C@@H](C)O)C(=O)N[C@@H](CCCNC(=N)N)C(=O)NCC(=O)N[C@@H](Cc1ccccc1)C(=O)N3)C(=O)N[C@@H](CC(C)C)C(=O)N[C@H]1CSSC[C@H](NC(=O)[C@H](C(C)C)NC(=O)CNC(=O)[C@H](CCCNC(=N)N)NC(=O)[C@H](CCCNC(=N)N)NC1=O)C(=O)N[C@@H](CCCNC(=N)N)C(=O)N2 — alveolar macrophage aggregation score (Sprague-Dawley rat, female, lung; 10 mg/kg, histopathology, multifocal; direction not given): 1 to 2
O=C1Nc2cc3[nH]nc(-c4ccncc4)c3cc2CN1Cc1ccccc1 — patients with TEAE (item: Diarrhea; patients with advanced solid tumours; intravenous, dose not given, all schedules): 12%
